Results collected from several papers.
Lines come from different studies, so protocols differ.
PIK3CA H1047Y: Phosphatidylinositol 4,5-bisphosphate 3-kinase catalytic subunit alpha isoform (PIK3CA, Homo sapiens, UniProt P42336, H1047Y)
PIK3CA E545A: Phosphatidylinositol 4,5-bisphosphate 3-kinase catalytic subunit alpha isoform (PIK3CA, Homo sapiens, UniProt P42336, E545A)
PIK3CA E542K: Phosphatidylinositol 4,5-bisphosphate 3-kinase catalytic subunit alpha isoform (PIK3CA, Homo sapiens, UniProt P42336, E542K)
PIK3CA I800L: Phosphatidylinositol 4,5-bisphosphate 3-kinase catalytic subunit alpha isoform (PIK3CA, Homo sapiens, UniProt P42336, I800L)

With `CNC1C[S+]2CC[S+]3CC[S+](C1)[Ru-4]321([N]=C=S)[n]2c3ccc(OC)cc3c3c4c(c5cc(F)c[n+]1c5c32)C(=O)NC4=O` (stereo not drawn) the remaining binding was 100% (PIK3CA H1047Y; KinomeScan; 0.1 µM; relative to: untreated).
`CCN1CCN(Cc2ccc(C(=O)Nc3ccc(C)c(NCc4cnc5[nH]ccc5c4OC)c3)cc2C(F)(F)F)CC1` gave a remaining binding of 66% (PIK3CA E545A; binding, competition with immobilised ligand; 1 µM).
The remaining binding of `CNC(=O)C1CCN(c2cc(C)c(F)cc2NC(=O)c2ccc(-c3cc(O)ccc3C)c(C)c2)CC1` is reported as 100% (PIK3CA E542K; binding, competition with immobilised ligand; 1 µM).
The remaining binding of `COc1c(Cl)cccc1Nc1c(-c2ccncc2C#C[C@@]2(C)CCCN2C(=O)/C=C/CN(C)C)[nH]c2c1C(=O)NCC2` is reported as 100% (PIK3CA I800L; binding, competition with immobilised ligand; 3 µM).
`Cc1ccc(-c2c(/C=C(\C#N)C(=O)NC(C)C)n(CCCO)c3ncnc(N)c23)cc1` gave a remaining binding of 100% (PIK3CA H1047Y; cell-free assay, competition with immobilised ligand; 1 µM).
For `C=CC(=O)N1CCCC(n2c(=O)c3ncccc3n(Cc3ccc(Oc4ccccc4)cc3)c2=O)C1` (stereo not drawn), the remaining binding was 51% (PIK3CA I800L; cell-free assay, competition with immobilised ligand; 1 µM).
`C=CC(=O)N1CCc2ccc(-n3c(=O)ccc4cnc5ccc(-c6cnn(C)c6)cc5c43)cc21` has a remaining binding of 47% (PIK3CA E545A; KINOMEscan; 1 µM; relative to: DMSO control).
With `CC(C)=CC1OC(C)(C)C2C=C3C(=O)C(Cl)=CC(O)C3C3C(O)C4OC4C(=O)C132` (stereo not drawn) the remaining binding was 89% (PIK3CA (Homo sapiens, UniProt P42336); cell-free assay, competition with immobilised ligand; 10 µM).
`CC(=O)c1cnc(N)nc1N1CC[C@H]1c1nn2ccc(Cl)c2c(=O)n1-c1ccccc1` has a remaining binding of 83% (PIK3CA E542K; binding, competition with immobilised ligand; 10 µM).
For `Cc1cnc2nc1Nc1cccc(c1)COC/C=C/COCc1cc(ccc1OCCN1CCOCC1)N2`, the remaining binding was 65% (PIK3CA H1047Y; binding; 0.1 µM).
For `COc1cc(Nc2nccc(-c3cnn4nc(OC)ccc34)n2)cc(C(F)(F)F)c1`, the remaining binding was 81% (PIK3CA H1047Y; binding; 1 µM).
With `Nc1ncc2c(n1)-c1c([nH]c3ccc(C4=CCOCC4)cc13)CCC2` the remaining binding was 100% (PIK3CA (Homo sapiens, UniProt P42336, Q546K); binding, competition with immobilised ligand; 1 µM).
